Assay results from different studies.
Every numbered part comes from another study and shows a few of its results, in no order. Several values in a cell are separate wells, animals, samples, runs or records.
UniProt Q8TDR2, sequence (whole entry, looked up): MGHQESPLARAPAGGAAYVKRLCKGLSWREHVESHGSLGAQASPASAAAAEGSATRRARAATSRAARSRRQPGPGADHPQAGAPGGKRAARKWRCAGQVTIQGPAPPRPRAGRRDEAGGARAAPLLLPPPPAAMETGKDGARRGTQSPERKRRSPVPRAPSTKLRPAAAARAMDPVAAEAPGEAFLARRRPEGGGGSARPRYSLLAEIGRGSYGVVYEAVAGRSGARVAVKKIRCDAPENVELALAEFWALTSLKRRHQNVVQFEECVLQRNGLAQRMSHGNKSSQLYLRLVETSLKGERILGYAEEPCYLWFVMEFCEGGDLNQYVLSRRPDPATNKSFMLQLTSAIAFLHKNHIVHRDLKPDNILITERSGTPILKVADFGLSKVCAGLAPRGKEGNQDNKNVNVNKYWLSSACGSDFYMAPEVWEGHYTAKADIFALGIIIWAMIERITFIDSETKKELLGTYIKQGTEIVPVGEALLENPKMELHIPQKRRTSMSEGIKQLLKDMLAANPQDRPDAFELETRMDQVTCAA
UniProt Q9P286, sequence (whole entry, looked up): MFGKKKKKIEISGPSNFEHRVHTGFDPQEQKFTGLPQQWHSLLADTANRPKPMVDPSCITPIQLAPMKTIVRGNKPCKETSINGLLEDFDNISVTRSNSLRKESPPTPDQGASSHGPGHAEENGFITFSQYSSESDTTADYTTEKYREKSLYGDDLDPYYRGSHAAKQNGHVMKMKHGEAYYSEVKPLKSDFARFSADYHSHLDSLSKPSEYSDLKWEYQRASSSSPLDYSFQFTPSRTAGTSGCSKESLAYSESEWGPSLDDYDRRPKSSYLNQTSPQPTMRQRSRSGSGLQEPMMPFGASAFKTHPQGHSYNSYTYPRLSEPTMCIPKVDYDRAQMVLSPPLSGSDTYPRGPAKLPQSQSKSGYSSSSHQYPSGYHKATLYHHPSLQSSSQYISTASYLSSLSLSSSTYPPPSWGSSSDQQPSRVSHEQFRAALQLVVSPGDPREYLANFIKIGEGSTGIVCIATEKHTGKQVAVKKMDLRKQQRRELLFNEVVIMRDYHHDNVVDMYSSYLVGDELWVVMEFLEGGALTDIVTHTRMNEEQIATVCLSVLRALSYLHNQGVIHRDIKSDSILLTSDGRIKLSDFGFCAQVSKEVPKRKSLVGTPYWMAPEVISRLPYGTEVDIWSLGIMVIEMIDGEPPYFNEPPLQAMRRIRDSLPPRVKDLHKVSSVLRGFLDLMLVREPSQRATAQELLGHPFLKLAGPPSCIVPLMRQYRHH
UniProt P42338, sequence (whole entry, looked up): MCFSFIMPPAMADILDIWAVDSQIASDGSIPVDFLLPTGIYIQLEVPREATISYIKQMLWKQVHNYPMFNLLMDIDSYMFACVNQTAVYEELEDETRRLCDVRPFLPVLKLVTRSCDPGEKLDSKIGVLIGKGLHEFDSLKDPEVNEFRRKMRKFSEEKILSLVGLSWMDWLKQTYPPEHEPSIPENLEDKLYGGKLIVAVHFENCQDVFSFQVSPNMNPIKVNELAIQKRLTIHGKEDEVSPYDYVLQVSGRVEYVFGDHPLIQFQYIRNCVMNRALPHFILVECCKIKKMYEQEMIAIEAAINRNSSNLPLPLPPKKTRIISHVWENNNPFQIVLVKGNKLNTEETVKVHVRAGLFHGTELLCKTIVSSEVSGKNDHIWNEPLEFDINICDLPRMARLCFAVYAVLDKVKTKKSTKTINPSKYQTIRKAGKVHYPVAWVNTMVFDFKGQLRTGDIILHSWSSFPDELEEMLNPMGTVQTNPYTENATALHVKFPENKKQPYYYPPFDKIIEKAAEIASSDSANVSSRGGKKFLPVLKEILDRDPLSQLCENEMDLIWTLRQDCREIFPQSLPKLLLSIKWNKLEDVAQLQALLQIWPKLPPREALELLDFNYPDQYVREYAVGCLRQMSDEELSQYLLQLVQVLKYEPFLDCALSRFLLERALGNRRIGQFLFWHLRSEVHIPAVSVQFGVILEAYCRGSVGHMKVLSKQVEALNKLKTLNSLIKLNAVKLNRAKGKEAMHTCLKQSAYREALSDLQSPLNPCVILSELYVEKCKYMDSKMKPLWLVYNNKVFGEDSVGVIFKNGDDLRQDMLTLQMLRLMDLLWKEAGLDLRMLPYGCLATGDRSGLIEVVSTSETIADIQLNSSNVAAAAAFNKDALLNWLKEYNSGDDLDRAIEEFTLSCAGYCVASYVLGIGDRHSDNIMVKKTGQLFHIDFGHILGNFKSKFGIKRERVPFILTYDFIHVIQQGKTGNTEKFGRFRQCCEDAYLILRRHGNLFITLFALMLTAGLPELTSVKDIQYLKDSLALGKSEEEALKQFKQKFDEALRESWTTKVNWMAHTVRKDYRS
UniProt P42336, sequence (whole entry, unmodified, looked up): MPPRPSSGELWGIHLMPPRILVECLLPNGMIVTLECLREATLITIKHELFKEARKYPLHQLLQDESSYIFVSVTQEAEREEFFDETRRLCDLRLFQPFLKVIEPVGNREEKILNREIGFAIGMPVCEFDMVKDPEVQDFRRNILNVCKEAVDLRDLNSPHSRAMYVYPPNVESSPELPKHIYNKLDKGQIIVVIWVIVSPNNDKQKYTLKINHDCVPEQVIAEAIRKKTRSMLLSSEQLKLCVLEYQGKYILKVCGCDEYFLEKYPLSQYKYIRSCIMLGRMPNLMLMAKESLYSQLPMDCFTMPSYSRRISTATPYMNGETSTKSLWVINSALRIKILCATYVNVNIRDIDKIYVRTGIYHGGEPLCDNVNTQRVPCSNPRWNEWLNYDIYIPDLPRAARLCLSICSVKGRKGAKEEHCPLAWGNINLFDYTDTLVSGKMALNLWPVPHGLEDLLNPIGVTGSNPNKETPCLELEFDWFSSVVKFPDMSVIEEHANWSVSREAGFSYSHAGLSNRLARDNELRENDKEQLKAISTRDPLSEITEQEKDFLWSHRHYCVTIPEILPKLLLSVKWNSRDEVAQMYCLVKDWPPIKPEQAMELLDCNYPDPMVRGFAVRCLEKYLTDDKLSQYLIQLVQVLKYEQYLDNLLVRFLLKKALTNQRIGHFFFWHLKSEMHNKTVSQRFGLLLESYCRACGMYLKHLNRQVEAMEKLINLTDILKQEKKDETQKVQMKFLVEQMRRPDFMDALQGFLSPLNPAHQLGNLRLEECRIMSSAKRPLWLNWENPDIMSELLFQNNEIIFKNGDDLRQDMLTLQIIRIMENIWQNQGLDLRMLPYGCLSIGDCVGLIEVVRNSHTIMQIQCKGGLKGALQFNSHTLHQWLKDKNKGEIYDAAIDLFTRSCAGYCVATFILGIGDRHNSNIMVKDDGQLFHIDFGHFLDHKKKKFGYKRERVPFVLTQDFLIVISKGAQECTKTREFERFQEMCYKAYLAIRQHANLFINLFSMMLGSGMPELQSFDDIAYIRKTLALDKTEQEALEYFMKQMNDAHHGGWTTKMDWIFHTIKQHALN
UniProt Q99755, sequence (whole entry, looked up): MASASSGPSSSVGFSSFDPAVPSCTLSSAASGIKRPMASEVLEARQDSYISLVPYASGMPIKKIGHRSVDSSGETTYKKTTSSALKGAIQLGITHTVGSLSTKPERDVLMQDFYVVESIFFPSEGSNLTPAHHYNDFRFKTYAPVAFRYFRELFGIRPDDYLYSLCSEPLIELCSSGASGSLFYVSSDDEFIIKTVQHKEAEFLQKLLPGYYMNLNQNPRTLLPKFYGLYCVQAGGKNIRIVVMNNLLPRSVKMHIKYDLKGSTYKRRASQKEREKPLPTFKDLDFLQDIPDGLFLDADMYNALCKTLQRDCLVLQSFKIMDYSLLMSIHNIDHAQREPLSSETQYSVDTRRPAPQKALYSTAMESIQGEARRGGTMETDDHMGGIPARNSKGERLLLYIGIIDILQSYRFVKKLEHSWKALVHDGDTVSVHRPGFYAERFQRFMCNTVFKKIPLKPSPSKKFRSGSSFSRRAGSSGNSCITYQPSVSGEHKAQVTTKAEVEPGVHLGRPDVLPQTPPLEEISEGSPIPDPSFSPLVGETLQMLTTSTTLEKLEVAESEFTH
UniProt Q00535, sequence (whole entry, looked up): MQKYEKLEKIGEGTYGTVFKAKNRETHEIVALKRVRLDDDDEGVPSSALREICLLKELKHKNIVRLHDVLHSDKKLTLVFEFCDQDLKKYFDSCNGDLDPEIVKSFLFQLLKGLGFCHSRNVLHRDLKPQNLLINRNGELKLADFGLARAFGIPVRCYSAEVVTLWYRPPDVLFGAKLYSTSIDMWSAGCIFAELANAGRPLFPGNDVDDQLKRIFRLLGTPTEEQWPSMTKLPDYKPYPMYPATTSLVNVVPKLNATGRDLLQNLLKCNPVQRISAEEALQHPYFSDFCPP

Sample 1
Target: Serine/threonine-protein kinase PLK2 (PLK2, Homo sapiens, UniProt Q9NYY3)
UniProt Q9NYY3, sequence (whole entry, looked up): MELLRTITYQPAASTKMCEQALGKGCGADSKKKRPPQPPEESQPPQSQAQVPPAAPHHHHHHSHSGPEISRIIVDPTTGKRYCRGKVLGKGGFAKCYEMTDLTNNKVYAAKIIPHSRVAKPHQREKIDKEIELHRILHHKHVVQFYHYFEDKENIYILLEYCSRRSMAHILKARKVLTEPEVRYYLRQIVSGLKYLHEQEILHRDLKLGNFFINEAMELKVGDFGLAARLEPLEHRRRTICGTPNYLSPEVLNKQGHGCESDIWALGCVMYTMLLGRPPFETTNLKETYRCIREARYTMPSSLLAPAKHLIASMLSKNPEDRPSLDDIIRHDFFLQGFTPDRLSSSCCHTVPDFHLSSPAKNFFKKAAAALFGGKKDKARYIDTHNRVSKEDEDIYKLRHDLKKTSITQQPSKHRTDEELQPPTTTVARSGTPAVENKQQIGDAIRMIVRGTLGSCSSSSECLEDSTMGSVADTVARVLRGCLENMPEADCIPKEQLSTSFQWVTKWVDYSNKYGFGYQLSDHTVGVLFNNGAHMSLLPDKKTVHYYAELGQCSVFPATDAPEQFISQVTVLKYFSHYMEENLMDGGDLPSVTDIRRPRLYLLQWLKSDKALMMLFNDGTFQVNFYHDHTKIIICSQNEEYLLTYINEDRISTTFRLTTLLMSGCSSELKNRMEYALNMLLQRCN
Read-out: enzyme activity
Action: inhibitor
Concentration: 0.5 µM
Reference: control
`CCN(CC)CCNC(=O)c1c(C)[nH]c(/C=C2\C(=O)Nc3ccc(Cl)cc32)c1C` gave a remaining activity of 91.2%.
`N#Cc1c(NC(=O)c2cccc3ccccc23)sc2c1CCCC2` has a remaining activity of 101%.
`CCOc1nc(NC(=O)Cc2cc(OC)ccc2OC)cc(N)c1C#N` gave a remaining activity of 105%.
The remaining activity of `Cc1cc2ncc(-c3ccccc3)nc2cc1C` is reported as 95%.
The remaining activity of `Cn1nc2c3c(cccc31)C(=O)c1ccccc1-2` is reported as 93.5%.
The remaining activity of `O=c1cc(-c2cccc3c2Sc2ccccc2S3)oc(N2CCOCC2)c1` is reported as 84.6%.
`COc1cc2c(cc1OC)-c1[nH]nc(Nc3cccc(F)c3)c1C2` has a remaining activity of 97.1%.
The remaining activity of `CCN(CC)CCNC(=O)c1c(C)[nH]c(/C=C2\C(=O)Nc3ccc(F)cc32)c1C` is reported as 99.2%.
With `O=C(Nc1cccc(Nc2nccc(Nc3cccc(C(F)(F)F)c3)n2)c1)C1CC1` the remaining activity was 99.5%.
The remaining activity of `Cc1nc2cc3nc(-c4cccs4)cnc3cc2n1C` is reported as 99.4%.
The remaining activity of `Ic1cccc(CSc2nnc(-c3ccncc3)o2)c1` is reported as 101%.
The remaining activity of `CCN(CC)C(=O)c1ccc(Nc2nc(OCC3CCCCC3)c3[nH]cnc3n2)cc1` is reported as 98.2%.
With `COc1cc2ncnc(Nc3cccc(Cl)c3)c2cc1OC` the remaining activity was 102%.
For `COc1cc2ncnc(Nc3ccc(O)c(Br)c3)c2cc1OC`, the remaining activity was 104%.
With `N#C/C(=C\c1ccc(O)c(O)c1)C(=O)NCc1ccccc1` the remaining activity was 105%.
`O=C1C(Cl)=C(N2C(=O)CCC2=O)C(=O)c2ccccc21` gave a remaining activity of 96%.
`O=C1c2ccccc2-c2n[nH]c3cccc1c23` has a remaining activity of 95%.
With `CN([C@@H](Cc1ccc(OS(=O)(=O)c2cccc3cnccc23)cc1)C(=O)N1CCN(c2ccccc2)CC1)S(=O)(=O)c1cccc2cnccc12` the remaining activity was 102%.
With `c1ccc(-c2[nH]ncc2-c2ccnc3ccccc23)nc1` the remaining activity was 98.9%.
`c1ccc(-c2cnc(Nc3ccc(OCCN4CCCC4)cc3)s2)cc1` gave a remaining activity of 105%.
`C[C@@H]1CCN(C(=O)CC#N)C[C@@H]1N(C)c1ncnc2[nH]ccc12` has a remaining activity of 102%.
`CN(C)C[C@H]1CCn2c(c(C3=C(c4cn(C)c5ccccc45)C(=O)NC3=O)c3ccccc32)C1` has a remaining activity of 99.9%.
The remaining activity of `O=C(NC(NC(=S)Nc1ccc(F)c([N+](=O)[O-])c1)C(Cl)(Cl)Cl)C(c1ccccc1)c1ccccc1` (stereo not shown) is reported as 92.9%.
The remaining activity of `Nc1cccc(-c2cc3c(Oc4cccc(O)c4)ncnc3[nH]2)c1` is reported as 106%.
`Cc1cn(-c2cc(NC(=O)c3ccc(C)c(Nc4nccc(-c5cccnc5)n4)c3)cc(C(F)(F)F)c2)cn1` gave a remaining activity of 107%.

Sample 2
Compound: CC(=O)C1=C(C)N(c2cccc(C(F)(F)F)c2)C(=O)N[C@@H]1c1ccc(C#N)nc1
Concentration: 1 µM
Receptor-type tyrosine-protein kinase FLT3 (FLT3, Homo sapiens, UniProt P36888, R834Q); cell-free assay, competition with immobilised ligand — remaining binding: 83.6%.
For Tyrosine-protein kinase Mer (MERTK, Homo sapiens, UniProt Q12866); cell-free assay, competition with immobilised ligand: remaining binding read 100%.
For Proto-oncogene tyrosine-protein kinase receptor Ret (RET, Homo sapiens, UniProt P07949, V804M); cell-free assay, competition with immobilised ligand: remaining binding read 100%.
It gave 100% for remaining binding (Tyrosine-protein kinase ABL1, non-phosphorylated (ABL1, Homo sapiens, UniProt P00519, T315I); cell-free assay, competition with immobilised ligand).
For Serine/threonine-protein kinase PAK 5 (PAK5, Homo sapiens, UniProt Q9P286); cell-free assay, competition with immobilised ligand: remaining binding read 96.2%.
For Serine/threonine-protein kinase B-raf (BRAF, Homo sapiens, UniProt P15056); cell-free assay, competition with immobilised ligand: remaining binding read 78.5%.
The remaining binding was 100% (Phosphatidylinositol 4-phosphate 5-kinase type-1 alpha (PIP5K1A, Homo sapiens, UniProt Q99755); cell-free assay, competition with immobilised ligand).
ALK tyrosine kinase receptor (ALK, Homo sapiens, UniProt Q9UM73); cell-free assay, competition with immobilised ligand — remaining binding: 100%.
The remaining binding was 100% (Cyclin-dependent kinase 5 (CDK5, Homo sapiens, UniProt Q00535); cell-free assay, competition with immobilised ligand).
For Mitogen-activated protein kinase kinase kinase 5 (MAP3K5, Homo sapiens, UniProt Q99683); cell-free assay, competition with immobilised ligand: remaining binding read 94.8%.
For Phosphatidylinositol 4,5-bisphosphate 3-kinase catalytic subunit alpha isoform (PIK3CA, Homo sapiens, UniProt P42336, E545A); cell-free assay, competition with immobilised ligand: remaining binding read 75.6%.
For Bone morphogenetic protein receptor type-1A (BMPR1A, Homo sapiens, UniProt P36894); binding, competition with immobilised ligand: remaining binding read 100%.
It gave 85.9% for remaining binding (Serine/threonine-protein kinase 35 (STK35, Homo sapiens, UniProt Q8TDR2); cell-free assay, competition with immobilised ligand).
It gave 100% for remaining binding (Serine/threonine-protein kinase PRP4 homolog (PRPF4B, Homo sapiens, UniProt Q13523); cell-free assay, competition with immobilised ligand).
It gave 73.8% for remaining binding (Receptor-type tyrosine-protein kinase FLT3 (FLT3, Homo sapiens, UniProt P36888, N841I); cell-free assay, competition with immobilised ligand).
It gave 100% for remaining binding (Cyclin-dependent kinase 11B (CDK11B, Homo sapiens, UniProt P21127); cell-free assay, competition with immobilised ligand).
The remaining binding was 100% (Tyrosine-protein kinase ABL1, phosphorylated (ABL1, Homo sapiens, UniProt P00519, F317I); binding).
For Insulin-like growth factor 1 receptor (IGF1R, Homo sapiens, UniProt P08069); cell-free assay, competition with immobilised ligand: remaining binding read 100%.
Casein kinase II subunit alpha (CSNK2A1, Homo sapiens, UniProt P68400); cell-free assay, competition with immobilised ligand — remaining binding: 94.8%.
For Phosphatidylinositol 4,5-bisphosphate 3-kinase catalytic subunit beta isoform (PIK3CB, Homo sapiens, UniProt P42338); cell-free assay, competition with immobilised ligand: remaining binding read 100%.
The remaining binding was 95.4% (Serine/threonine-protein kinase 24 (STK24, Homo sapiens, UniProt Q9Y6E0); cell-free assay, competition with immobilised ligand).
The remaining binding was 89% (Beta-adrenergic receptor kinase 1 (GRK2, Homo sapiens, UniProt P25098); cell-free assay, competition with immobilised ligand).
Activin receptor type-2B (ACVR2B, Homo sapiens, UniProt Q13705); cell-free assay, competition with immobilised ligand — remaining binding: 87.5%.
Ephrin type-B receptor 3 (EPHB3, Homo sapiens, UniProt P54753); cell-free assay, competition with immobilised ligand — remaining binding: 100%.
For Tyrosine-protein kinase SYK (SYK, Homo sapiens, UniProt P43405); cell-free assay, competition with immobilised ligand: remaining binding read 100%.

Sample 3
Cell line: A-375
Concentration: 100 µM
Time: 18 h
With `Nc1nc2c(c(=O)[nH]1)N(C=O)C(CNc1ccc(C(=O)N[C@@H](CCC(=O)O)C(=O)O)cc1)CN2` (stereo partly shown) the viability was 103%.
`O=C(O)[C@@H](S)[C@@H](S)C(=O)O` gave a viability of 99.9%.
With `N=C(N)N/N=C/c1c(Cl)cccc1Cl` the viability was 73.2%.
The viability of `COc1cc2ccc(=O)oc2cc1OC` is reported as 94.4%.
With `OCCOc1ccc(/C(=C(/CCCl)c2ccccc2)c2ccccc2)cc1` the viability was 8.3%.
`NC[C@H](O)c1ccc(O)c(O)c1` gave a viability of 131% and 133%.
`C[C@H]1C[C@@H]2[C@H]([C@@H](O)C[C@@]3(C)[C@H]2CC[C@]3(O)C(=O)CO)[C@@]2(C)C=CC(=O)C=C12` has a viability of 100%.
With `Cn1c(=O)c2[nH]cnc2n(C)c1=O` the viability was 104% and 91.7% and 100%.
The viability of `CCCCc1ncc(/C=C(\Cc2cccs2)C(=O)O)n1Cc1ccc(C(=O)O)cc1` is reported as 88.9%.
`CC(c1cc2ccccc2s1)N(O)C(N)=O` (stereo not shown) has a viability of 105%.

Sample 4
Cell line: Huh-7
Concentration: 10 µM
Time: 24 h
With `CC(=O)[C@@]1(O)CC[C@H]2[C@@H]3C[C@H](C)C4=CC(=O)C=C[C@]4(C)[C@@]3(F)[C@@H](O)C[C@@]21C` the viability was 103%.
`CC(=O)OCC1=C(C(=O)O)N2C(=O)[C@@H](NC(=O)CSc3ccncc3)[C@H]2SC1` gave a viability of 107%.
With `Cc1cc(=O)[nH]c(=S)[nH]1` the viability was 95.1%.
The viability of `CS(=O)(=O)OCCCCOS(C)(=O)=O` is reported as 78.6%.
For `COc1ccc(C(Cl)=C(c2ccc(OC)cc2)c2ccc(OC)cc2)cc1`, the viability was 97.8%.
`O=C1c2cccc(O)c2C(=O)c2c(O)cccc21` gave a viability of 97.4%.
`CC1(C)S[C@@H]2[C@H](NC(=O)Cc3ccccc3)C(=O)N2[C@H]1C(=O)O` has a viability of 99.6%.
With `O=C(O)c1cc(O)c(O)c(O)c1` the viability was 102%.
The viability of `CC[C@H](C)[C@H](N)C1=N[C@H](C(=O)N[C@@H](CC(C)C)C(=O)N[C@H](CCC(=O)O)C(=O)N[C@H](C(=O)N[C@H]2CCCCNC(=O)[C@H](CC(N)=O)NC(=O)[C@@H](CC(=O)O)NC(=O)[C@H](Cc3cnc[nH]3)NC(=O)[C@@H](Cc3ccccc3)NC(=O)[C@H]([C@@H](C)CC)NC(=O)[C@@H](CCCN)NC2=O)[C@@H](C)CC)CS1` is reported as 99.2%.
For `O=C(O)c1ccccc1Nc1cccc(C(F)(F)F)c1`, the viability was 99.4%.
For `CC1(C)O[C@@H]2C[C@H]3[C@@H]4C[C@H](F)C5=CC(=O)C=C[C@]5(C)[C@H]4[C@@H](O)C[C@]3(C)[C@]2(C(=O)CO)O1`, the viability was 100%.
`NCCCC[C@H](N[C@@H](CCc1ccccc1)C(=O)O)C(=O)N1CCC[C@H]1C(=O)O` gave a viability of 100%.
For `Cc1ncc([N+](=O)[O-])n1CC(O)CCl` (stereo not shown), the viability was 100%.
The viability of `Cc1cnc(NC(=O)C2=C(O)c3ccccc3S(=O)(=O)N2C)s1` is reported as 100%.
`CCC(=O)OCC(=O)[C@@]1(OC(=O)CC)[C@@H](C)C[C@H]2[C@@H]3CCC4=CC(=O)C=C[C@]4(C)[C@@]3(Cl)[C@@H](O)C[C@@]21C` gave a viability of 101%.
`CN(C)[C@@H]1C(O)=C(C(N)=O)C(=O)[C@@]2(O)C(O)=C3C(=O)c4c(O)cccc4[C@@](C)(O)[C@H]3C[C@@H]12` has a viability of 94.5%.

Repeated from above (sample 2):
For Bone morphogenetic protein receptor type-1A (BMPR1A, Homo sapiens, UniProt P36894); binding, competition with immobilised ligand: remaining binding read 100%.
It gave 85.9% for remaining binding (Serine/threonine-protein kinase 35 (STK35, Homo sapiens, UniProt Q8TDR2); cell-free assay, competition with immobilised ligand).
It gave 100% for remaining binding (Serine/threonine-protein kinase PRP4 homolog (PRPF4B, Homo sapiens, UniProt Q13523); cell-free assay, competition with immobilised ligand).
It gave 73.8% for remaining binding (Receptor-type tyrosine-protein kinase FLT3 (FLT3, Homo sapiens, UniProt P36888, N841I); cell-free assay, competition with immobilised ligand).
It gave 100% for remaining binding (Cyclin-dependent kinase 11B (CDK11B, Homo sapiens, UniProt P21127); cell-free assay, competition with immobilised ligand).
The remaining binding was 100% (Tyrosine-protein kinase ABL1, phosphorylated (ABL1, Homo sapiens, UniProt P00519, F317I); binding).
For Insulin-like growth factor 1 receptor (IGF1R, Homo sapiens, UniProt P08069); cell-free assay, competition with immobilised ligand: remaining binding read 100%.
Casein kinase II subunit alpha (CSNK2A1, Homo sapiens, UniProt P68400); cell-free assay, competition with immobilised ligand — remaining binding: 94.8%.
For Phosphatidylinositol 4,5-bisphosphate 3-kinase catalytic subunit beta isoform (PIK3CB, Homo sapiens, UniProt P42338); cell-free assay, competition with immobilised ligand: remaining binding read 100%.
The remaining binding was 95.4% (Serine/threonine-protein kinase 24 (STK24, Homo sapiens, UniProt Q9Y6E0); cell-free assay, competition with immobilised ligand).
The remaining binding was 89% (Beta-adrenergic receptor kinase 1 (GRK2, Homo sapiens, UniProt P25098); cell-free assay, competition with immobilised ligand).
Activin receptor type-2B (ACVR2B, Homo sapiens, UniProt Q13705); cell-free assay, competition with immobilised ligand — remaining binding: 87.5%.
